# Results gathered from unrelated publications.
# A part holds a random share of what one study measured. “And” joins repeats or separate records; there may be more than shown.
# UniProt O75460, sequence (whole entry, looked up): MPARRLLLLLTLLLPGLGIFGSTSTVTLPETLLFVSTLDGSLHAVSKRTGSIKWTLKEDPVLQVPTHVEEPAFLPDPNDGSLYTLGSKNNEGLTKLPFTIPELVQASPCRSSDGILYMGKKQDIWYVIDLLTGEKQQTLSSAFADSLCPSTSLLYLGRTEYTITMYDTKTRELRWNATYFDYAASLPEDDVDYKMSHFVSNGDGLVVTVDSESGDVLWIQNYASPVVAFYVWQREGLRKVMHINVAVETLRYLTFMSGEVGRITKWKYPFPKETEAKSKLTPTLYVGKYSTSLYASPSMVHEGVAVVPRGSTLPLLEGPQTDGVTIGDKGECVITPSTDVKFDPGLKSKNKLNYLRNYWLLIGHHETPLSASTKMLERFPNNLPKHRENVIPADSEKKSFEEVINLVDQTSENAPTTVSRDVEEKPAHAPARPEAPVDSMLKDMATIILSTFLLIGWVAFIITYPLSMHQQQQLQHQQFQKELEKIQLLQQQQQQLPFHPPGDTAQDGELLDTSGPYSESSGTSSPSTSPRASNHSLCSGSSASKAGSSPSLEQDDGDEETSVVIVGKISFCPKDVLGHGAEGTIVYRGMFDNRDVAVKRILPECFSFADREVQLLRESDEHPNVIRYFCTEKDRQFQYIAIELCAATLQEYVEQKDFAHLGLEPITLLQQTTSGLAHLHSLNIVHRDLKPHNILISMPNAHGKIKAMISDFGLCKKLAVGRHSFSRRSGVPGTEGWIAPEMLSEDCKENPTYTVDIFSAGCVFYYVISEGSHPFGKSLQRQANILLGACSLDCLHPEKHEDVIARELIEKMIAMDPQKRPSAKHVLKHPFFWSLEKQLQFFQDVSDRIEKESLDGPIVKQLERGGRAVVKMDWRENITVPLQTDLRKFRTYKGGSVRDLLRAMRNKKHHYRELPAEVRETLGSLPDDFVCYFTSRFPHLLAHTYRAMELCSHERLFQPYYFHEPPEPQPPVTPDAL
# UniProt P48736, sequence (whole entry, looked up): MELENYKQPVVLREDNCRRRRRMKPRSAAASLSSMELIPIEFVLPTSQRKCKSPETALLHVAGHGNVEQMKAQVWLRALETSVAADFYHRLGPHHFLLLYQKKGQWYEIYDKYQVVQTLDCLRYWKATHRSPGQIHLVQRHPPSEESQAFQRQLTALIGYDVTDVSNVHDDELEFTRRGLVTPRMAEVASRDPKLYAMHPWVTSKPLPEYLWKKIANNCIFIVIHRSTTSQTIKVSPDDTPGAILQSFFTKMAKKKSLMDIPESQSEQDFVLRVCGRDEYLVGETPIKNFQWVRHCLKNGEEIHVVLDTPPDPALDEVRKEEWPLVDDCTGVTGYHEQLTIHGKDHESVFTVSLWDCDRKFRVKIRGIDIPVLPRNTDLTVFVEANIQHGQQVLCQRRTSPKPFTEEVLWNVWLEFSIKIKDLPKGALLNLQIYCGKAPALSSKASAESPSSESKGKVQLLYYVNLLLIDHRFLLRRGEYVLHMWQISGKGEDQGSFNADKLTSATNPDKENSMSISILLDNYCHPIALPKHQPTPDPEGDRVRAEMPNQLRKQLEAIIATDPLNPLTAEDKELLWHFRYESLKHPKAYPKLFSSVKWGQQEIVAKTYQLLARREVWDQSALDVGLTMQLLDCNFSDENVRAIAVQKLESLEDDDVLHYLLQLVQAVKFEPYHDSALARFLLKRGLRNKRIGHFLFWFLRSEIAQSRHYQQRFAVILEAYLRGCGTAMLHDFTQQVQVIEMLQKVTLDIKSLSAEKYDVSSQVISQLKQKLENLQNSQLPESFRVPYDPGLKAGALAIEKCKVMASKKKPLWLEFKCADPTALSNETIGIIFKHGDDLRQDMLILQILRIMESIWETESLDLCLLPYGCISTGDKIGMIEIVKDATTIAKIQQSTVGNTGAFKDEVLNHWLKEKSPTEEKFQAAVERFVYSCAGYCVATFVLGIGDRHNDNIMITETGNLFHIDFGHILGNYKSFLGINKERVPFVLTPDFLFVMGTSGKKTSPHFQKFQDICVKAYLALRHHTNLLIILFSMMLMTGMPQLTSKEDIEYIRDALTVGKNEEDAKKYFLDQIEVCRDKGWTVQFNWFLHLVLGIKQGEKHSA
# UniProt Q13164, sequence (whole entry, looked up): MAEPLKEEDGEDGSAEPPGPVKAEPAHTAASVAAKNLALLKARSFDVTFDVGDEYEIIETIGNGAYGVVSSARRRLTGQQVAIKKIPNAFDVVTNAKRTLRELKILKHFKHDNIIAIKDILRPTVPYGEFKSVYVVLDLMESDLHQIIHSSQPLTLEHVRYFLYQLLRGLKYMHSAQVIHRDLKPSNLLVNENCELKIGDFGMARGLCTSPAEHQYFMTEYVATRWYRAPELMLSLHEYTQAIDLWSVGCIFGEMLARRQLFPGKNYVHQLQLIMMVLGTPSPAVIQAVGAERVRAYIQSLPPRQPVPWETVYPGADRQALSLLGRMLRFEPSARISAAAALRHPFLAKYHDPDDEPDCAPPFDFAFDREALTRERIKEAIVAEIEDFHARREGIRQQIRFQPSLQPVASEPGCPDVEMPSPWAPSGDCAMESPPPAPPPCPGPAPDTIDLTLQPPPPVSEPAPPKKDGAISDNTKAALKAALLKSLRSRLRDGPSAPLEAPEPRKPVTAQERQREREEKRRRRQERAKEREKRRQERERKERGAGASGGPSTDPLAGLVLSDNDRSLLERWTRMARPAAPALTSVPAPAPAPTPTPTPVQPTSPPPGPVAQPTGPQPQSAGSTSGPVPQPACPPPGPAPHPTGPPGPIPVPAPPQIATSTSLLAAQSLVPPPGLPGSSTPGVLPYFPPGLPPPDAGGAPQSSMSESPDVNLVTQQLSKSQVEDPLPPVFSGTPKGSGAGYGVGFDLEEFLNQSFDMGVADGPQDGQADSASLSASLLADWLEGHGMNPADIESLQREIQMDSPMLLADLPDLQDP

# Series 1
# Target: Mitogen-activated protein kinase kinase kinase kinase 5 (MAP4K5, Homo sapiens, UniProt Q9Y4K4)
# UniProt Q9Y4K4, sequence (whole entry, looked up): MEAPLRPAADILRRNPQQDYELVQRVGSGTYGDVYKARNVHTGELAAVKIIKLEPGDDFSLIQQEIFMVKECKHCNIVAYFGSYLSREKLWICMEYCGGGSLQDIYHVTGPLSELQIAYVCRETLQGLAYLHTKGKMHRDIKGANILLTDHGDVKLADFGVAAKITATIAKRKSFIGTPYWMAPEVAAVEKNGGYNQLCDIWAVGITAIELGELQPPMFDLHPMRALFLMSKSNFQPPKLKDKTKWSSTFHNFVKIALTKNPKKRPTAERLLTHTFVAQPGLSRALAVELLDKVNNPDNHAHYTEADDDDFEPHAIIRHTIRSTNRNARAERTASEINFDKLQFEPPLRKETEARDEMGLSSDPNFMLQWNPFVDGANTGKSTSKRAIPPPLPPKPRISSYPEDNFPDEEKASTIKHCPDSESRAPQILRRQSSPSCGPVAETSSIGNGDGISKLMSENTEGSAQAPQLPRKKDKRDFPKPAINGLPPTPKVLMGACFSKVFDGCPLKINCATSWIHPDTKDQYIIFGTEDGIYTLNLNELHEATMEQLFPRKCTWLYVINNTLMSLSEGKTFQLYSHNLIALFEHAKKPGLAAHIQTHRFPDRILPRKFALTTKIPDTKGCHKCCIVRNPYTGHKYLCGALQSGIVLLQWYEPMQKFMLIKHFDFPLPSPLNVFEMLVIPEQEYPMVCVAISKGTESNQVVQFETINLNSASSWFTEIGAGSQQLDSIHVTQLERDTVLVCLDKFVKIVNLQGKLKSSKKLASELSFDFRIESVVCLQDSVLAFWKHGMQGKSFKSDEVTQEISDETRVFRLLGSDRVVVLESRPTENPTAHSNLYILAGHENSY
# Observed: enzyme activity
# Mode: inhibitor
# Tested at: 0.5 µM
# Baseline: control
Structure (SMILES),remaining activity [%]
COc1cc2ncnc(Nc3cccc(Cl)c3)c2cc1OC,59.5
O=C(NC(NC(=S)Nc1ccc(F)c([N+](=O)[O-])c1)C(Cl)(Cl)Cl)C(c1ccccc1)c1ccccc1 (centres unmarked),91
Ic1cccc(CSc2nnc(-c3ccncc3)o2)c1,99.5
c1ccc(-c2cnc(Nc3ccc(OCCN4CCCC4)cc3)s2)cc1,72.5
CCN(CC)CCNC(=O)c1c(C)[nH]c(/C=C2\C(=O)Nc3ccc(F)cc32)c1C,4.06
C[C@@H]1CCN(C(=O)CC#N)C[C@@H]1N(C)c1ncnc2[nH]ccc12,112
O=C(Nc1cccc(Nc2nccc(Nc3cccc(C(F)(F)F)c3)n2)c1)C1CC1,94.9
Nc1cccc(-c2cc3c(Oc4cccc(O)c4)ncnc3[nH]2)c1,18.4
COc1cc2c(cc1OC)-c1[nH]nc(Nc3cccc(F)c3)c1C2,89
Cn1nc2c3c(cccc31)C(=O)c1ccccc1-2,86
Cc1cc2ncc(-c3ccccc3)nc2cc1C,89.3
CN([C@@H](Cc1ccc(OS(=O)(=O)c2cccc3cnccc23)cc1)C(=O)N1CCN(c2ccccc2)CC1)S(=O)(=O)c1cccc2cnccc12,96.3
N#Cc1c(NC(=O)c2cccc3ccccc23)sc2c1CCCC2,93.8

# Series 2
# SMILES: Cc1nc(Nc2ncc(C(=O)Nc3c(C)cccc3Cl)s2)cc(N2CCN(CCO)CC2)n1
# Mode: inhibitor
# FGFR2: Fibroblast growth factor receptor 2 (FGFR2, Homo sapiens, UniProt P21802)
# UniProt P21802, sequence (whole entry, looked up): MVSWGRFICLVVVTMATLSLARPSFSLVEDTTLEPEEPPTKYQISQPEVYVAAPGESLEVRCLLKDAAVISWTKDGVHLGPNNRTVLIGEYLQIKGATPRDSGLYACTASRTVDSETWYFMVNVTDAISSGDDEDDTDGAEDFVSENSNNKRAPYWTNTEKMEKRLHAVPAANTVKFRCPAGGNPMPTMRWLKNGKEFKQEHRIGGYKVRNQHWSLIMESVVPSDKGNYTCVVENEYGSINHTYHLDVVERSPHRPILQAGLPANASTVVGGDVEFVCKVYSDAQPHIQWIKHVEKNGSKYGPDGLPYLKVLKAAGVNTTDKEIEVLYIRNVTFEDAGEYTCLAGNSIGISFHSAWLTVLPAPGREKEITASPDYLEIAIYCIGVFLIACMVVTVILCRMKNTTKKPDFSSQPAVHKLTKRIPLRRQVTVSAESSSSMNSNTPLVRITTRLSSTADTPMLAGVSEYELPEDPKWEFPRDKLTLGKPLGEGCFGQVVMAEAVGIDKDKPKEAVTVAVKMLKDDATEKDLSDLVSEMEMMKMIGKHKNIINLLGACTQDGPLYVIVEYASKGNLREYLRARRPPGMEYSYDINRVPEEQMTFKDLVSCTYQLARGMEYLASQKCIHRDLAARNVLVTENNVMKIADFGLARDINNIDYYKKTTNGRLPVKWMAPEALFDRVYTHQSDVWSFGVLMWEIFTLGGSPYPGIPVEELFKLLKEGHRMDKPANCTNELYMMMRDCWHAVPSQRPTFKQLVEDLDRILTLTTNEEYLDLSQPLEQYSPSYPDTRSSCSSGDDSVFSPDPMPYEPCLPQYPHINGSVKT
target,tested at,inhibition
"PIK3C2B (Homo sapiens, UniProt O00750)",1 µM,< 50%
"Non-receptor tyrosine-protein kinase TYK2, JH2 pseudokinase domain (TYK2, Homo sapiens, UniProt P29597)",10 µM,70%
"CDK2 (Homo sapiens, UniProt P24941)",10 µM,< 50%
"GAK (Homo sapiens, UniProt O14976)",10 µM,99%
FGFR2,1 µM,< 50%
"TAOK3 (Homo sapiens, UniProt Q9H2K8)",10 µM,< 50%
FGFR2,10 µM,84%
"CHEK2 (Homo sapiens, UniProt O96017)",10 µM,< 50%
"IKBKE (Homo sapiens, UniProt Q14164)",10 µM,< 50%

# Series 3
# SMILES: CCC(=O)N[C@@H]1CC[C@H](C(=O)N(C)c2ccc(-c3nc4ccccc4o3)cc2)C1
# Observed: cell-free assay
# Technique: competition with immobilised ligand
# Tested at: 1 µM
target,remaining binding [%]
"NEK3 (Homo sapiens, UniProt P51956)",73
"DCLK2 (Homo sapiens, UniProt Q8N568)",89
"MAPK12 (Homo sapiens, UniProt P53778)",73
"ERN1 (Homo sapiens, UniProt O75460)",100
"MAPK14 (Homo sapiens, UniProt Q16539)",95
"PIK3CG (Homo sapiens, UniProt P48736)",75
"NEK9 (Homo sapiens, UniProt Q8TD19)",100
"MUSK (Homo sapiens, UniProt O15146)",100
"CSNK1A1L (Homo sapiens, UniProt Q8N752)",100
"WNK1 (Homo sapiens, UniProt Q9H4A3)",100
"MAPK7 (Homo sapiens, UniProt Q13164)",100
"ROCK1 (Homo sapiens, UniProt Q13464)",100
"CDK3 (Homo sapiens, UniProt Q00526)",100
"RIPK4 (Homo sapiens, UniProt P57078)",72
"EGFR (Homo sapiens, UniProt P00533, del747-750/T751S)",100
"TBK1 (Homo sapiens, UniProt Q9UHD2)",65
"CDK5 (Homo sapiens, UniProt Q00535)",100
"CLK2 (Homo sapiens, UniProt P49760)",100
"ERBB4 (Homo sapiens, UniProt Q15303)",100
"CILK1 (Homo sapiens, UniProt Q9UPZ9)",92

# Series 4
# Target: Calcium/calmodulin-dependent protein kinase type II subunit alpha (CAMK2A, Homo sapiens, UniProt Q9UQM7)
# UniProt Q9UQM7, sequence (whole entry, looked up): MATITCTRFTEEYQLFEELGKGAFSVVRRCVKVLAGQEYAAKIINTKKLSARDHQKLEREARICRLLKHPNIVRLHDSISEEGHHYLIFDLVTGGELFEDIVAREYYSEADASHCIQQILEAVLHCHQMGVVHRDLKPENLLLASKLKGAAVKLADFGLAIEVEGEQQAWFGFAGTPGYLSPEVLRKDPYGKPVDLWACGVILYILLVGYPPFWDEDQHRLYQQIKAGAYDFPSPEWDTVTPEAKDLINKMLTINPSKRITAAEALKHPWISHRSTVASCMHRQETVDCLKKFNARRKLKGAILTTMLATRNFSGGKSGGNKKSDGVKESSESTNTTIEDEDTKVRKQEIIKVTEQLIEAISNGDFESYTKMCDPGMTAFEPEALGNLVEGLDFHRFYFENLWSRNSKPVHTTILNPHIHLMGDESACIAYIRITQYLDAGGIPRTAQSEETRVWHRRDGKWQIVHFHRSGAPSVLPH
# Observed: enzyme activity
# Mode: inhibitor
# Tested at: 10 µM
Structure (SMILES),inhibition
NC(=O)c1ccn(-c2cnc(NC[C@]3(c4ncccc4F)C[C@H](F)C3)nc2)c1,-5%
CC(C)(O[C@@H]1O[C@H](CO)[C@@H](O)[C@H](O)[C@H]1O)[C@H]1Cc2cc3ccc(=O)oc3cc2O1,-13%
O=S(=O)(O)c1cc(O)ccc1O,0.03% and 0%
Cc1c(C)c2c(c(C)c1O)CC[C@@](C)(CCC[C@H](C)CCC[C@H](C)CCCC(C)C)O2 (racemic),-0.07%
CC(C)(C)NC(=O)N[C@H](C(=O)N1C[C@H]2[C@@H]([C@H]1C(=O)NC(CC1CCC1)C(=O)C(N)=O)C2(C)C)C(C)(C)C (some centres unmarked),-1%
COc1ccc(-c2oc3c(CCC(C)(C)O)c(O[C@@H]4O[C@H](CO)[C@@H](O)[C@H](O)[C@H]4O)cc(O)c3c(=O)c2O)cc1,-19%
COc1cc(-c2oc3cc(O)cc(O)c3c(=O)c2O[C@@H]2O[C@H](CO[C@@H]3O[C@@H](C)[C@H](O)[C@@H](O)[C@H]3O)[C@@H](O)[C@H](O)[C@H]2O[C@@H]2O[C@@H](C)[C@H](O)[C@@H](O)[C@H]2O)ccc1O,2%
NCC(N)C(=O)O (centres unmarked),11%
CC1(C)O[C@H]1COc1c2ccoc2cc2oc(=O)ccc12,14%
C[C@@H]1CC[C@@]2(OC1)O[C@H]1C[C@H]3[C@@H]4CC[C@H]5C[C@@H](O)[C@H](O)C[C@]5(C)[C@H]4CC[C@]3(C)[C@H]1[C@@H]2C,-12%
Cc1cc2nc3c(=O)[nH]c(=O)nc-3n(C[C@H](O)[C@H](O)[C@H](O)COP(=O)(O)O)c2cc1C,15%
NCCC(=O)O,8%
Nc1ncnc2c1ncn2[C@H]1C[C@H](O)[C@@H](COP(=O)(O)O)O1,45%
NS(=O)(=O)c1ccc(C(=O)O)cc1,-9%

# Some of these lines once more (series 3):
target,remaining binding [%]
"ROCK1 (Homo sapiens, UniProt Q13464)",100
"MAPK14 (Homo sapiens, UniProt Q16539)",95
"DCLK2 (Homo sapiens, UniProt Q8N568)",89
"NEK9 (Homo sapiens, UniProt Q8TD19)",100
